Published values from different studies.
Parts stem from different laboratories: compare values within a part only. Changes are numbered by the printed parent chain.

Set 1 — target: JUND, bZIP domain (human); technique: DHFR protein complementation; sample: yeast; relative to: wild-type JUN-FOS pair; direction: higher = stronger binding
Notes: single substitutions, most at no-binding floor
Starting sequence: JUN, bZIP domain (human); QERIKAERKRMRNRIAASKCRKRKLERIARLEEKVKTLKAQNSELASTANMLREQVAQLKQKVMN; partner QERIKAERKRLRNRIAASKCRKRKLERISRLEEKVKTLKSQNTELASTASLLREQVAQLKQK
Change	binding fitness [natural log]
A49I	-0.121
R30V	-0.516
S43C	-0.726
S43Y	-0.843
A29K	-0.694
A57W	-1.17
K39G	-1.12
E44I	-0.823
E44Y	-0.992
K36T	-1.06
A57H	-0.861
K39I	-0.775
A46F	-1.07
V35M	-1.15
E44S	-0.972
A29F	-0.999
A49G	-1.03
S43D	-0.385
R30D	-0.657
S47Q	-0.527
Q55E	-0.531
T48M	-0.736
S43H	-0.706

Set 2 — technique: RNA Bind-n-Seq; molecule type: RNA; sample: in vitro; concentration: 200 nM; notes: whole 134-nt RNA, ends assumed; with: 150 mM KCl; relative to: input library; direction: higher = stronger binding
Target: Fragile X messenger ribonucleoprotein 1, C-terminal low-complexity region (Fmr1, Mus musculus, UniProt P35922)
Constant ends, left off below: GGGAGUUCUACAGUCCGACGAUC … UGGAAUUCUCGGGUGUCAAGG
Strand	log2 enrichment
ACCAUGCAGGUGGGCAUCUUUGGGAAGUGGGGCAAGGGGGGGAUAGGGAGGGGGGUAACACUUUGGGAACAGGUGGUCCCAGUUCGUUUC	0.742
AGUCCUGUGCUACACAUCGUAUGUACCGAAUCGGGUUUUUGGGUGGGUUUUUUUGGGAAAGUAUUAUGUUACGCCGUUCGGAUCUGCACU	0.848
CCUGUGCUACACAUCGUAUGUACCGAAUCGGAAAAAAAGGGGAAAAAAAGGAAAAAAAGGGAAAGUAUUAUGUUACGCCGUUCGGAUCUG	-0.876
UUGCUUCAAGAAGAUCCCUAAGCUGUAGAACAUUUUAACGUUGAUGCCACAACGCAGAUUGAUGCCUUGUAGAUGGAGCUUGCAGAUGGA	-0.235
AAGUCCUGUGCUACACAUCGUAUGUACCGAAUCGGAAAAAAAGGUUUUUUUGGAGGAAAGUAUUAUGUUACGCCGUUCGGAUCUGCACUU	-1.36
UGGGAGGUAGAUUUUGUUUAUUUUUUUAGCUCAUUUCCAGGGGUGGGAAUUUUUUUUUAAUAUGUGUCAUGAAUAAAGUUGUUUUUGAAA	-0.486
UGGCCCUGGUGGCAUGCGGGGAGGAAGAGGUGGCCUCAUGGAUCGUGCUGGUCCCGGUGGAAUGUUCAGAGGUGGCCGUGGUGGAGACAG	0.206
CCUCACCACUCCUUUCUCUUUCAUUCAGUUCCGCUCAGUGGACGAGACUACCCAGGCUAUGGCCUUUGAUGGCAUCAUCUUCCAGGGCCA	0.383
UGGCCCUGGUGGCAUGCGGGGAGGAAGAGGUGGCCUCAUGGAUCGUGGUGGUCCCUGUGGAAUGUUCAGAGGUGGCCGUGGUGGAGACAG	-0.0198
AAGUCCUGUGCUACACAUCGUAUGUACCGAAUCGGGGAGGGGUUUUUGGGGAGGGGAAAGUAUUAUGUUACGCCGUUCGGAUCUGCACUU	1.31
UCACCUGUUUACAGUGAAUCAGACGUCCCAAUAGAUGUGGAGACGGUCACAUCAACGCCUAUGCCACUCUAUGACAAUCAGAAGGCACGC	-1.27
AAGUCCUGUGCUACACAUCGUAUGUACCGAAUCGGGUUUUUGGGAGGGUUUUUGGGAAAGUAUUAUGUUACGCCGUUCGGAUCUGCACUU	0.586
UGGAGCACAGGGCGAGCUCUCCUCCGCCCUGCAGCCUCAGGUAAGGAUCCGGACCUUCACUGCUGCCCCAACUGGGGCUCCUCAGCUCGG	-0.188
UAACUUUAGAGGAGGAUCUGAUGGAUAUGGCAGUGGACGUGGUUUUGGGGAUGGCUAUAAUGGGUAUGGAGGAGGACCUGGAGGUGGCAA	0.211

Set 3 — technique: DHFR PCA, dose-response; sample: yeast; notes: Hill fit, mean, not affinity; with: (+)-ABA, dose series; direction: lower = more sensitive
Target: ABI1, truncated, D143A, DHFR fusion (Arabidopsis thaliana, UniProt P49597)
Starting sequence: PYL1, truncated, DHFR fusion (Arabidopsis thaliana, UniProt Q8VZS8); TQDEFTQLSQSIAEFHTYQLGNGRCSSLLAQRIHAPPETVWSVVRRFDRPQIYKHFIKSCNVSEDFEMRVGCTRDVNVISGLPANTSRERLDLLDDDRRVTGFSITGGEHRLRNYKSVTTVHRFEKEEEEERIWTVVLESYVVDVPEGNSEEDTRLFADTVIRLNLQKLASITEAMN
Change	ABA EC50 [µM]
A13I	5.01
R98L	5.79
S27F	196
F124A	4.06
R46H	42.4
D153H	41.2
S42V	57.8
S27E	71.4
T17D	23.6
V43R	150
L164H	0.827
H55Y	1.93
T106M	7.68
T73E	1.47
D97N	2
E151P	2.57
W41F	167
E129D	1.34
I162H	655
L28N	174
R111P	359

Set 4 — target: CCNA2, cyclin fold, Cln2 fusion (human); technique: yeast growth competition, sequencing; sample: yeast; notes: strong parent motif; relative to: not given; direction: higher = stronger binding
Starting sequence: SAMHD1 docking peptide (human); ASKSRVQLFKDDP; partner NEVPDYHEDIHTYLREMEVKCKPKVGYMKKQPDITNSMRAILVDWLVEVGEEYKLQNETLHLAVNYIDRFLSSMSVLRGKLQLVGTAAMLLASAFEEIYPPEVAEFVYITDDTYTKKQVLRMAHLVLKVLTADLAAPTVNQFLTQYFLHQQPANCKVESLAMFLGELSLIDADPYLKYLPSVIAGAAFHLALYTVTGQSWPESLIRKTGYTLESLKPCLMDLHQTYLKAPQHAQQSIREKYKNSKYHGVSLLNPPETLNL
Change	normalised enrichment score
F9H	-0.131
V6K	5.65
V6Q	1.62
K3E	0.0563
S4E	-0.331
Q7M	0.703
F9G	-0.371
K10H	1.35
D12R	1.92
Q7I	0.571
D11F	1.51
F9D	0.0496
D11I	1.45
D12H	2.7
Q7G	0.795
D12F	2.94
L8S	-0.252
S2T	3.42
S4V	5.85
F9E	-0.554
K3R	3.48
K3V	1.12
F9S	0.291
R5F	0.332
K10T	1.91

A few entries again (set 2):
Strand	log2 enrichment
AGUCCUGUGCUACACAUCGUAUGUACCGAAUCGGGUUUUUGGGUGGGUUUUUUUGGGAAAGUAUUAUGUUACGCCGUUCGGAUCUGCACU	0.848
CCUGUGCUACACAUCGUAUGUACCGAAUCGGAAAAAAAGGGGAAAAAAAGGAAAAAAAGGGAAAGUAUUAUGUUACGCCGUUCGGAUCUG	-0.876
UUGCUUCAAGAAGAUCCCUAAGCUGUAGAACAUUUUAACGUUGAUGCCACAACGCAGAUUGAUGCCUUGUAGAUGGAGCUUGCAGAUGGA	-0.235
AAGUCCUGUGCUACACAUCGUAUGUACCGAAUCGGAAAAAAAGGUUUUUUUGGAGGAAAGUAUUAUGUUACGCCGUUCGGAUCUGCACUU	-1.36
UGGGAGGUAGAUUUUGUUUAUUUUUUUAGCUCAUUUCCAGGGGUGGGAAUUUUUUUUUAAUAUGUGUCAUGAAUAAAGUUGUUUUUGAAA	-0.486
UGGCCCUGGUGGCAUGCGGGGAGGAAGAGGUGGCCUCAUGGAUCGUGCUGGUCCCGGUGGAAUGUUCAGAGGUGGCCGUGGUGGAGACAG	0.206
CCUCACCACUCCUUUCUCUUUCAUUCAGUUCCGCUCAGUGGACGAGACUACCCAGGCUAUGGCCUUUGAUGGCAUCAUCUUCCAGGGCCA	0.383
UGGCCCUGGUGGCAUGCGGGGAGGAAGAGGUGGCCUCAUGGAUCGUGGUGGUCCCUGUGGAAUGUUCAGAGGUGGCCGUGGUGGAGACAG	-0.0198
AAGUCCUGUGCUACACAUCGUAUGUACCGAAUCGGGGAGGGGUUUUUGGGGAGGGGAAAGUAUUAUGUUACGCCGUUCGGAUCUGCACUU	1.31
UCACCUGUUUACAGUGAAUCAGACGUCCCAAUAGAUGUGGAGACGGUCACAUCAACGCCUAUGCCACUCUAUGACAAUCAGAAGGCACGC	-1.27
AAGUCCUGUGCUACACAUCGUAUGUACCGAAUCGGGUUUUUGGGAGGGUUUUUGGGAAAGUAUUAUGUUACGCCGUUCGGAUCUGCACUU	0.586
UGGAGCACAGGGCGAGCUCUCCUCCGCCCUGCAGCCUCAGGUAAGGAUCCGGACCUUCACUGCUGCCCCAACUGGGGCUCCUCAGCUCGG	-0.188
UAACUUUAGAGGAGGAUCUGAUGGAUAUGGCAGUGGACGUGGUUUUGGGGAUGGCUAUAAUGGGUAUGGAGGAGGACCUGGAGGUGGCAA	0.211
